Measurements of several laboratories.
Compare with care: the assays were run in different laboratories. Values joined by “and” are separate records of one study, mostly repeats; a detail may differ. ± gives the spread as reported.
rep R3428I 3C-like proteinase: Replicase polyprotein 1ab, 3C-like proteinase (rep, Severe acute respiratory syndrome-related coronavirus, UniProt P0C6X7, R3428I)
OPRL1: Nociceptin receptor (OPRL1, Homo sapiens, UniProt P41146)
L/N: L/N (Lassa virus, UniProt O09705+P13699)
OPRM1: Mu-type opioid receptor (OPRM1, Homo sapiens, UniProt P35372)
Oprd1: Delta-type opioid receptor (Oprd1, Rattus norvegicus, UniProt P33533)

By UniProt entry, the sequences of proteins in these tests, tags left out. Residues count along the entry.
UniProt P41146, whole entry: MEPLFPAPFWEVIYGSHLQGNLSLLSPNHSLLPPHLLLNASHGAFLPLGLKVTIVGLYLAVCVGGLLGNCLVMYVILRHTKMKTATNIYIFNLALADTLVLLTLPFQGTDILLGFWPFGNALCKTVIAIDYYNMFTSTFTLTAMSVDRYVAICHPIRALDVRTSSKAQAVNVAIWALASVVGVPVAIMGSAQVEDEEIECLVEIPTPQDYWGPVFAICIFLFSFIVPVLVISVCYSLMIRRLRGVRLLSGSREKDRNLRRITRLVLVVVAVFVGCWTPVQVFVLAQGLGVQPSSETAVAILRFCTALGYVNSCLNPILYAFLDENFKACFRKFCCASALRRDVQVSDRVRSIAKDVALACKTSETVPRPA
UniProt P35372, whole entry: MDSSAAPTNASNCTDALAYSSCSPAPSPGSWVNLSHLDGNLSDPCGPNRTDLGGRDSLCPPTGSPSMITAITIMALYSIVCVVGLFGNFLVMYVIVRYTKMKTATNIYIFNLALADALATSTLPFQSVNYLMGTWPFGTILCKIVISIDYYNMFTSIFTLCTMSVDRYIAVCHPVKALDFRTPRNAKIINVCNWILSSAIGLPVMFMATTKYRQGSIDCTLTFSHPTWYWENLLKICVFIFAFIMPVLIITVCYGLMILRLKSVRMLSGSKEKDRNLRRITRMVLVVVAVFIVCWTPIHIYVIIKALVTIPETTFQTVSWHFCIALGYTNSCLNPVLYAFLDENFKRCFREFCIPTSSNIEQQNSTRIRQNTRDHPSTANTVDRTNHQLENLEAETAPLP
UniProt P33533, whole entry: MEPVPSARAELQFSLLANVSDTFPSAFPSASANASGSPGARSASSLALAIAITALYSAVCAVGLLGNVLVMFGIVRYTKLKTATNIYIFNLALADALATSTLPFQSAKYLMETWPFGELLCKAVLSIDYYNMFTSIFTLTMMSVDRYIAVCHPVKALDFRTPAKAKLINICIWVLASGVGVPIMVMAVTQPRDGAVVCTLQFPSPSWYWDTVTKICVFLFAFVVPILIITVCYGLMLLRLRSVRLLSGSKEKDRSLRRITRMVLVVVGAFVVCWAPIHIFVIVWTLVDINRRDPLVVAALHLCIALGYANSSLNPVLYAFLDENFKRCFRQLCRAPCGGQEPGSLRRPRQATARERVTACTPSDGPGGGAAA
UniProt Q869C3, whole entry, looked up: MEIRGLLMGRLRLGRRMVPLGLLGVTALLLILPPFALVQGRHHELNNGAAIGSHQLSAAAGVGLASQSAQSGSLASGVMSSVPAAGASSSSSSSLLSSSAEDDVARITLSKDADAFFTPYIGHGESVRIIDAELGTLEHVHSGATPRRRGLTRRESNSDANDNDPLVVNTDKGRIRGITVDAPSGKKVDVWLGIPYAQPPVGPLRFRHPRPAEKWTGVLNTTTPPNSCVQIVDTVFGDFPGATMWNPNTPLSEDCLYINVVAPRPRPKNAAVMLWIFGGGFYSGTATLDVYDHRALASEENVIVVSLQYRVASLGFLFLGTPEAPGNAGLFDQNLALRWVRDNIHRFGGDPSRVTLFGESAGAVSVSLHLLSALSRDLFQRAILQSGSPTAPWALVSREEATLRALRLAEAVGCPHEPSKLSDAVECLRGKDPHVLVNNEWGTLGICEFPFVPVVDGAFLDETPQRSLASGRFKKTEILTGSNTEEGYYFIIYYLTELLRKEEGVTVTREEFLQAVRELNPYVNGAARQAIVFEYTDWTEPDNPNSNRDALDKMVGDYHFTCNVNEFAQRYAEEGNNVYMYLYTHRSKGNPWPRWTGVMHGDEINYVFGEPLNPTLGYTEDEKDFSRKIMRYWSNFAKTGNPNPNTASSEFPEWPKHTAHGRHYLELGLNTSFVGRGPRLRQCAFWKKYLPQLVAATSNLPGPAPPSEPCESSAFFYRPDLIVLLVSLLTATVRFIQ
UniProt Q8N3R9, 256-336 F318W limits assumed: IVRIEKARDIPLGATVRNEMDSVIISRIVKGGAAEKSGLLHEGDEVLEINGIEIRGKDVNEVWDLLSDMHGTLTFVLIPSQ
UniProt P41145, whole entry: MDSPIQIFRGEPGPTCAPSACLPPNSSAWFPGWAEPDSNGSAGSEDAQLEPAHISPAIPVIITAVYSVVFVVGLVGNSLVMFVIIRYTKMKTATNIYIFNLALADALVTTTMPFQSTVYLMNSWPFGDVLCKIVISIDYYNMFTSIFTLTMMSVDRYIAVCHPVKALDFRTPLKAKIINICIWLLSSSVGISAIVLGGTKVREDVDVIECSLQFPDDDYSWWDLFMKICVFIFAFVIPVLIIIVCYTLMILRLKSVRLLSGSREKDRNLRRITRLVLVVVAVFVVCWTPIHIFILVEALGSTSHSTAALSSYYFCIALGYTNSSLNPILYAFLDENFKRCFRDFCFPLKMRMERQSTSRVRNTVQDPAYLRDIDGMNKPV
UniProt P21462, whole entry: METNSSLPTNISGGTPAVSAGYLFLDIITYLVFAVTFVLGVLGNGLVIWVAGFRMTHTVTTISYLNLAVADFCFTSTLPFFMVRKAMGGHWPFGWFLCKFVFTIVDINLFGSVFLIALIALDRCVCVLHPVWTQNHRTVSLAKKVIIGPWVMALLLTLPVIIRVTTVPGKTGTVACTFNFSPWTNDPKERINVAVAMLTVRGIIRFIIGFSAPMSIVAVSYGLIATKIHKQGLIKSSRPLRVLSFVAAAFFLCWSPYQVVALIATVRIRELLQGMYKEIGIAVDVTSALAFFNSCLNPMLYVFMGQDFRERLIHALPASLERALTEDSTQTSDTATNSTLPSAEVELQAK

Structure (SMILES) | target | test | system | setting | measurement | value
CCOP(=O)(OCC)Oc1ccc([N+](=O)[O-])cc1 | Ace (Anopheles gambiae, UniProt Q869C3) | enzyme inhibition, inhibitor |  | added: acetylthiocholine 600 µM | Kd | 1000 ± 140 nM
CC[C@H](C)[C@H](NC(=O)[C@H](CC(C)C)NC(=O)[C@H](CCCNC(=N)N)NC(=O)[C@H](CCC(=O)O)NC(=O)[C@H](CCSC)NC(=O)[C@H](C)NC(=O)[C@@H]1CCCN1C(=O)[C@@H]1CCCN1C(=O)[C@@H]1CCCN1C(=O)[C@H](CCSC)NC(=O)[C@H](CC(C)C)NC(=O)[C@H](CC(N)=O)NC(=O)[C@H](Cc1c[nH]c2ccccc12)NC(=O)[C@@H](N)CCSC)C(=O)O | Protein PALS1 (PALS1, Homo sapiens, UniProt Q8N3R9, F318W) | SPR |  | pH 7.4, 25 °C, added: PALS1 PDZ F318W | Kd | 18000 ± 2000 nM
O=C(/C=C/c1ccccc1)N[C@@H](COC(=O)/C=C/c1ccccc1)C(=O)NC1CCCCC1 | rep R3428I 3C-like proteinase | enzyme activity, inhibitor, HPLC substrate depletion |  | pH 4.0 | IC50 | 85000 nM
CN(C)[C@]1(c2ccccc2)CC[C@]2(CC1)OCCc1c3cc(F)ccc3[nH]c12 | OPRL1 | cAMP, agonist |  | human receptor | EC50 | 45.5 ± 10.5 nM
O=C(N[C@@H](COC(=O)c1ccccc1)C(=O)NC1CCCCC1)c1ccccc1 | rep R3428I 3C-like proteinase | enzyme activity, inhibitor, HPLC substrate depletion |  | pH 4.0 | IC50 | 220000 nM
CCC1C(=O)N(C2CCN([C@H]3CC[C@@H]4CCCc5cccc3c54)CC2)c2ccccc21 (relative stereo) | OPRL1 | agonist | cell membranes |  | EC50 | 21.7 ± 5.6 nM
CO/C=C(/C(=O)OC)c1ccccc1Oc1cc(Oc2ccccc2C#N)ncn1 | L/N | viral replication, Gaussia luciferase reporter |  |  | EC50 | 7030 nM
CCC1C(=O)N(C2CCN(CCCc3ccccc3)CC2)c2ccccc21 (stereo not shown) | OPRM1 | radioligand displacement |  | added: [3H]DAMGO | Ki | 10.2 ± 0.26 nM
O=C(/C=C/c1ccccc1)N[C@@H](COC(=O)c1ccccn1)C(=O)NC1CCCCC1 | rep R3428I 3C-like proteinase | enzyme activity, inhibitor, HPLC substrate depletion |  | pH 4.0 | IC50 | 560000 nM
CCC1C(=O)N(C2CCN(C3CCc4ccccc4C3)CC2)c2ccccc21 (stereo not shown) | OPRK1 (Homo sapiens, UniProt P41145) | radioligand displacement |  | added: tritiated U-69593 | Ki | 15.1 ± 1.6 nM
O=C(/C=C/c1ccccc1)N[C@H](COC(=O)c1cccnc1)C(=O)NC1CCCCC1 | rep R3428I 3C-like proteinase | enzyme activity, inhibitor, HPLC substrate depletion |  | pH 4.0 | IC50 | 240000 nM
CC(C)C[C@H](NC(=O)CNC(=O)[C@@H](N)Cc1ccccc1)C(=O)N[C@@H](Cc1ccccc1)C(=O)N[C@@H](CC(=O)O)C(=O)O | Shiga-like toxin 2 subunit A, A1 fragment (UniProt P09385) | SPR | 0.5% DMSO | pH 7.4 | Kd | 125000 ± 27000 nM
Cc1cc(N)c2ccccc2[n+]1CCCCCCCCCC[n+]1c(C)cc(N)c2ccccc21 | L/N | viral replication, Gaussia luciferase reporter |  |  | EC50 | 1530 nM
COc1cccc(OCC(=O)N[C@H](C(=O)N[C@@H](CC(C)C)C(=O)N[C@@H](C[C@@H]2CCNC2=O)C(=O)c2nc3ccccc3s2)C(C)C)c1 | rep R3428I 3C-like proteinase | enzyme activity, inhibitor, HPLC |  | 60 min, 37 °C, added: substrate 111 µM | IC50 | 750 nM
CCC1C(=O)N(C2CCN(Cc3cccc4[nH]ccc34)CC2)c2ccccc21 (stereo not shown) | OPRL1 | agonist | cell membranes |  | EC50 | 82 ± 16.4 nM
COC(=O)[C@@H](Cc1ccc(O)c(O)c1)OC(=O)[C@H]1c2c(/C=C/C(=O)O[C@H](Cc3ccc(O)c(O)c3)C(=O)O)ccc(O)c2O[C@@H]1c1ccc(O)c(O)c1 | Spike glycoprotein (Severe acute respiratory syndrome coronavirus 2, UniProt P0DTC2) | biolayer interferometry |  |  | Kd | 18600 nM
O=C1Cc2ccccc2N1C1CCN([C@H]2CC[C@@H]3CCCc4cccc2c43)CC1 (relative stereo) | OPRM1 | radioligand displacement |  | added: [3H]DAMGO | Ki | 41.5 ± 3.71 nM
Nc1nc(N)c2nc(CNc3ccc(C(=O)N[C@@H](CCC(=O)O)C(=O)O)cc3)cnc2n1 | Botulinum neurotoxin type A, heavy chain (Clostridium botulinum, UniProt P0DPI0) | binding, scintillation proximity |  |  | EC50 | 703 nM and 700 nM
CC[C@H](C)[C@H](N)C(=O)N[C@@H](CC(=O)O)C(=O)N[C@@H](CCCNC(=N)N)C(=O)N[C@@H](CC(C)C)C(=O)N[C@@H](CC(N)=O)C(=O)N[C@@H](CCC(=O)O)C(=O)N[C@H](C(=O)N[C@@H](C)C(=O)N[C@@H](CCCCN)C(=O)N[C@@H](CC(N)=O)C(=O)N[C@@H](CC(C)C)C(=O)N[C@@H](CC(N)=O)C(=O)N[C@@H](CCC(=O)O)C(=O)N[C@@H](CO)C(=O)N[C@@H](CC(C)C)C(=O)N[C@H](C(=O)N[C@@H](CC(=O)O)C(=O)N[C@@H](CC(C)C)C(=O)N[C@@H](CCC(N)=O)C(=O)N[C@@H](CCC(=O)O)C(=O)N[C@@H](CC(C)C)C(=O)NCC(=O)N[C@@H](CCCCN)C(=O)N[C@@H](Cc1ccc(O)cc1)C(=O)N[C@@H](CCC(=O)O)C(=O)N[C@@H](CCC(N)=O)C(=O)N[C@@H](Cc1ccc(O)cc1)C(=O)N[C@H](C(=O)N[C@@H](CCCCN)C(=O)N[C@@H](Cc1c[nH]c2ccccc12)C(=O)N1CCC[C@H]1C(=O)N[C@@H](Cc1c[nH]c2ccccc12)C(=O)N[C@@H](Cc1ccc(O)cc1)C(=O)N[C@H](C(=O)N[C@@H](Cc1c[nH]c2ccccc12)C(=O)N[C@@H](CC(C)C)C(=O)O)C(C)C)[C@@H](C)CC)[C@@H](C)CC)C(C)C | FPR1 (Homo sapiens, UniProt P21462) | binding, competition binding |  | 4 °C, added: formyl-Nle-Leu-Phe-Nle-Tyr-Lys-FITC 0.3 nM | Ki | 3270 ± 250 nM
O=CN1CC[C@]23c4c5ccc(O)c4O[C@H]2[C@@H](O)C=C[C@H]3[C@H]1C5 | Oprd1 |  | rat brain membranes | added: [3H]DSLET | Ki | 17700 ± 1200 nM
CO[C@]12CC[C@@]3(C[C@@H]1[C@](C)(O)c1cccs1)[C@H]1Cc4ccc(O)c5c4[C@@]3(CCN1CC1CC1)[C@H]2O5 | Oprd1 | binding, radioligand displacement | C6 rat glioma | added: [3H]diprenorphine | Ki | 1 ± 0.22 nM
O=C(O)c1ccc(Cc2cccs2)cc1 | Ricin, A chain (Ricinus communis, UniProt P02879) | binding, SPR |  |  | Kd | 404000 nM

A few entries again:
Structure (SMILES) | target | test | system | setting | measurement | value
CCC1C(=O)N(C2CCN(C3CCc4ccccc4C3)CC2)c2ccccc21 (stereo not shown) | OPRK1 (Homo sapiens, UniProt P41145) | radioligand displacement |  | added: tritiated U-69593 | Ki | 15.1 ± 1.6 nM
O=C(/C=C/c1ccccc1)N[C@H](COC(=O)c1cccnc1)C(=O)NC1CCCCC1 | rep R3428I 3C-like proteinase | enzyme activity, inhibitor, HPLC substrate depletion |  | pH 4.0 | IC50 | 240000 nM
CC(C)C[C@H](NC(=O)CNC(=O)[C@@H](N)Cc1ccccc1)C(=O)N[C@@H](Cc1ccccc1)C(=O)N[C@@H](CC(=O)O)C(=O)O | Shiga-like toxin 2 subunit A, A1 fragment (UniProt P09385) | SPR | 0.5% DMSO | pH 7.4 | Kd | 125000 ± 27000 nM
